Assay results of several laboratories.
Lines come from different studies, so protocols differ. Numbers after ± are the reported error. ≈ marks a conversion by molar mass, not a printed value.

COC(=O)C1=CO[C@@H](C)[C@@H]2Cn3ccc4c5ccccc5nc-4c3C[C@H]12  resistance index (Plasmodium falciparum; parasite growth, [3H]-hypoxanthine incorporation; FCR3 drug-resistant; baseline: FCR3 over 3D7): < 1.4
O=C(Cc1csc2nc(-c3ccc(Br)cc3)cn12)NN=C1CCCC1  EC50 (herpes simplex virus 1; viral cytopathicity, microscopy; HEL): > 100 µg/mL
CC(=O)O[C@@H]1C[C@@H](C)O[C@H]2O[C@@H]3C[C@@H]4CC[C@@H]5[C@H](CC[C@]6(C)[C@@H](C7=CC(=O)OC7)CC[C@]56O)[C@@]4(C)C[C@H]3O[C@]21O  worm count (Schistosoma mansoni; mouse chronic infection, liver; oral, 10 mg/kg single, live worms): 3 ± 4.2
COc1ccc(Br)cc1/C=N/NC(=O)Cn1ccc(=O)c2ccccc21  inhibition (Rhizoctonia solani; microbial growth; 50 µg/mL): 14.3%
CC[C@H](C)[C@H](NC(=O)CNC(=O)[C@H](CCCCN)NC(=O)[C@H](CC(C)C)NC(=O)[C@H](CC(C)C)NC(=O)[C@H](CCCCN)NC(=O)[C@H](CCC(=O)O)NC(=O)[C@@H](NC(=O)[C@@H](NC(=O)CN)[C@@H](C)CC)[C@@H](C)CC)C(=O)NCC(=O)N[C@@H](CCCCN)C(=O)N[C@H](C(=O)N[C@H](C(=O)N[C@@H](CO)C(=O)NCC(=O)N[C@H](C(=O)N[C@@H](CC(C)C)C(=O)N[C@@H](CCCCN)C(=O)N[C@@H](C)C(=O)N[C@H](C(=O)N[C@@H](C)C(=O)NCC(=O)N[C@@H](C)C(=O)N[C@@H](CCC(N)=O)C(=O)N[C@@H](CO)C(=O)NCC(=O)NCC(=O)N[C@@H](CO)C(=O)N[C@@H](CCC(N)=O)C(=O)N[C@H](C(=O)N[C@@H](CCCCN)C(=O)N[C@@H](C)C(=O)N[C@@H](CO)C(=O)N[C@@H](CCC(N)=O)C(=O)N[C@@H](CCCCN)C(=O)N[C@H](C(=O)N[C@@H](C)C(=O)N[C@@H](CO)C(=O)O)[C@@H](C)CC)[C@@H](C)CC)[C@@H](C)O)C(C)C)C(C)C)C(C)C  antibacterial activity (Gram-negative bacteria; MIC; concentration not given): active
CC(=O)C1=C(O)C=C2Oc3c(C(C)=O)c(O)c(C)c(O)c3[C@]2(C)C1=O  MIC99 (Candida tropicalis; broth microdilution; ATCC 750 fluconazole and amphotericin B resistant; 24 and 48 h): 4.54 µM (≈ 1.56 µg/mL)
C=CCc1ccc(OCc2ccccc2)c(OC)c1  antifeedant index (Spodoptera frugiperda; larvae; 500 µg/mL; baseline: untreated control): 47.5%
CC(=O)N[C@@H](CS)C(=O)N[C@@H](CO)C(=O)N[C@@H](CO)C(=O)N[C@@H](Cc1c[nH]c2ccccc12)C(=O)N[C@@H](Cc1ccccc1)C(=O)N1CCC[C@H]1C(=O)N[C@@H](Cc1ccccc1)C(=O)N[C@@H](CO)C(=O)N[C@@H](CCC(N)=O)C(=O)N[C@@H](Cc1ccc(O)cc1)C(=O)N[C@@H](CCC(N)=O)C(=O)N[C@@H](Cc1c[nH]c2ccccc12)C(=O)N[C@@H](Cc1c[nH]c2ccccc12)C(=O)N[C@@H](CCCCN)C(N)=O  neutralisation activity (HIV-1; 89.6 (R5/X4); concentration not given): inactive
CC1(C)CC[C@]2(CO)CC[C@]3(C)C(=CC[C@@H]4[C@@]5(C)CCCNC(C)(C)[C@@H]5CC[C@]43C)[C@@H]2C1  selectivity index (Human cytomegalovirus; HFF, AD169; baseline: CC50 over EC50): < 3
CC(=O)O[C@@H]1C[C@@H](C)O[C@H]2O[C@@H]3C[C@@H]4CC[C@@H]5[C@H](CC[C@]6(C)[C@@H](C7=CC(=O)OC7)CC[C@]56O)[C@@]4(C=O)C[C@H]3O[C@]21O  viability effect (Schistosoma mansoni; microscopic viability score; adult worms; 0.1 µM, 72 h): 26.5%
CC[C@H](C)[C@H](NC(=O)[C@H](CCCCN)NC(=O)[C@H](CCCCN)NC(=O)[C@H](Cc1ccccc1)NC(=O)[C@H](Cc1ccccc1)NC(=O)[C@H](CCCCN)NC(=O)[C@H](CCCCN)NC(=O)[C@H](Cc1ccccc1)NC(=O)[C@H](CCCNC(=N)N)NC(=O)[C@@H](N)CCCCN)C(=O)N[C@@H](CCCCN)C(=O)N[C@@H](CCCCN)C(=O)N[C@@H](CO)C(=O)N[C@H](C(=O)N[C@@H](CCCCN)C(=O)N[C@@H](CCCCN)C(=O)N[C@@H](CCCNC(=N)N)C(=O)N[C@H](C(=O)N[C@@H](CCCCN)C(=O)N[C@@H](CCCCN)C(=O)N[C@@H](CC(C)C)C(=O)N[C@@H](Cc1ccccc1)C(=O)N[C@@H](CCCCN)C(=O)N[C@@H](CCCCN)C(=O)N1CCC[C@H]1C(=O)N[C@@H](CCCNC(=N)N)C(=O)N[C@H](C(=O)N[C@H](C(=O)N1CCC[C@H]1C(=O)N[C@H](C(=O)N[C@@H](CO)C(=O)N[C@H](C(=O)N1CCC[C@H]1C(=O)N[C@@H](Cc1ccccc1)C(=O)O)[C@@H](C)CC)[C@@H](C)CC)[C@@H](C)CC)C(C)C)C(C)C)C(C)C  inhibition (Escherichia coli; bacterial ATP level; E24, Mueller-Hinton broth; 1 µg/mL, 1/4 × MIC): 50%
C/C=C/c1ccc(OCc2ccccc2)c(OC)c1  antifeedant index (Spodoptera frugiperda; larvae; 100 µg/mL; baseline: untreated control): 10.4%
CC[C@H](C)[C@H](NC(=O)[C@H](CCCCN)NC(=O)[C@H](CCCCN)NC(=O)[C@H](CC(C)C)NC(=O)[C@H](CCCCN)NC(=O)[C@H](CCC(=O)O)NC(=O)[C@H](CCCCN)NC(=O)[C@@H](NC(=O)[C@H](CCCCN)NC(=O)[C@H](CC(N)=O)NC(=O)[C@H](CCCNC(=N)N)NC(=O)[C@H](Cc1ccccc1)NC(=O)[C@H](CCCCN)NC(=O)[C@H](CCCNC(=N)N)NC(=O)[C@H](CC(C)C)NC(=O)[C@H](CCCNC(=N)N)NC(=O)[C@H](CCCCN)NC(=O)[C@H](CCCNC(=N)N)NC(=O)[C@H](CC(C)C)NC(=O)CN)[C@@H](C)CC)C(=O)NCC(=O)N[C@@H](CCC(N)=O)C(=O)N[C@@H](CCCCN)C(=O)N[C@H](C(=O)N[C@@H](CCC(N)=O)C(=O)NCC(=O)N[C@@H](Cc1ccccc1)C(=O)N[C@H](C(=O)N1CCC[C@H]1C(=O)N[C@@H](CCCCN)C(=O)N[C@@H](CC(C)C)C(=O)N[C@@H](C)C(=O)N1CCC[C@H]1C(=O)N[C@@H](CCCNC(=N)N)C(=O)N[C@H](C(=O)N[C@@H](CC(=O)O)C(=O)N[C@@H](Cc1ccc(O)cc1)C(=O)O)[C@@H](C)O)C(C)C)[C@@H](C)CC  lethal concentration (Streptococcus sanguinis; inhibition zone; ATCC 1.2497; LB agar, overnight): 1.16 µM
C=CCc1ccc(OCC=C(C)C)c(OC)c1  antifeedant index (Spodoptera frugiperda; larvae; 100 µg/mL; baseline: untreated control): 37.2%
COc1ccccc1-c1n[nH]c2nc(N[C@H]3CC[C@H](NS(=O)(=O)CC(C)C)CC3)ncc12  EC50 fold change (Leishmania donovani; promastigotes, LdBOB start clone; baseline: wild type): 1
CC(C)C[C@@H]1NC(=O)[C@H](CCCCN)NC(=O)[C@H](C(C)C)NC(=O)[C@@H]2CCCN2C(=O)[C@@H](Cc2ccc(O)cc2)NC(=O)[C@H](CC(C)C)NC(=O)[C@H](CCCCN)NC(=O)[C@H](C(C)C)NC(=O)[C@H](CCCCN)NC(=O)[C@H](CC(C)C)NC(=O)[C@@H]2CCCN2C(=O)[C@@H](Cc2ccc(O)cc2)NC(=O)[C@H](C(C)C)NC1=O  MIC geometric mean (Gram-negative bacteria; 24 h, 7 strains): 70.7 µg/mL (≈ 45.8 µM)
CC[C@H](C)[C@H](NC(=O)[C@H](CCCCN)NC(=O)[C@H](CCCCN)NC(=O)[C@H](CC(C)C)NC(=O)[C@H](CCCCN)NC(=O)[C@H](CCC(=O)O)NC(=O)[C@H](CCCCN)NC(=O)[C@@H](NC(=O)[C@H](CCCCN)NC(=O)[C@H](CC(N)=O)NC(=O)[C@H](CCCNC(=N)N)NC(=O)[C@H](Cc1ccccc1)NC(=O)[C@H](CCCCN)NC(=O)[C@H](CCCNC(=N)N)NC(=O)[C@H](CC(C)C)NC(=O)[C@H](CCCNC(=N)N)NC(=O)[C@H](CCCCN)NC(=O)[C@H](CCCNC(=N)N)NC(=O)[C@H](CC(C)C)NC(=O)[C@@H](N)CC(C)C)[C@@H](C)CC)C(=O)NCC(=O)N[C@@H](CCC(N)=O)C(=O)N[C@@H](CCCCN)C(=O)N[C@H](C(=O)N[C@@H](CCC(N)=O)C(=O)NCC(=O)N[C@@H](Cc1ccccc1)C(=O)N[C@H](C(=O)N1CCC[C@H]1C(=O)N[C@@H](CCCCN)C(=O)N[C@@H](CC(C)C)C(=O)N[C@H](C(=O)N1CCC[C@H]1C(=O)N[C@@H](CCCNC(=N)N)C(=O)N[C@H](C(=O)N[C@@H](CCC(=O)O)C(=O)N[C@@H](CO)C(=O)O)[C@@H](C)O)C(C)C)C(C)C)[C@@H](C)CC  lethal concentration (Alcaligenes faecalis; inhibition zone; CGMCC 1.184): 2.31 µM
CCC1(O)C([N+](=O)[O-])=NNc2nc(C(F)(F)F)nn21 (stereo not drawn)  selectivity index (coxsackievirus B3; Vero, Nancy; baseline: CC50 over IC50): 3

Repeated from above:
CC[C@H](C)[C@H](NC(=O)[C@H](CCCCN)NC(=O)[C@H](CCCCN)NC(=O)[C@H](Cc1ccccc1)NC(=O)[C@H](Cc1ccccc1)NC(=O)[C@H](CCCCN)NC(=O)[C@H](CCCCN)NC(=O)[C@H](Cc1ccccc1)NC(=O)[C@H](CCCNC(=N)N)NC(=O)[C@@H](N)CCCCN)C(=O)N[C@@H](CCCCN)C(=O)N[C@@H](CCCCN)C(=O)N[C@@H](CO)C(=O)N[C@H](C(=O)N[C@@H](CCCCN)C(=O)N[C@@H](CCCCN)C(=O)N[C@@H](CCCNC(=N)N)C(=O)N[C@H](C(=O)N[C@@H](CCCCN)C(=O)N[C@@H](CCCCN)C(=O)N[C@@H](CC(C)C)C(=O)N[C@@H](Cc1ccccc1)C(=O)N[C@@H](CCCCN)C(=O)N[C@@H](CCCCN)C(=O)N1CCC[C@H]1C(=O)N[C@@H](CCCNC(=N)N)C(=O)N[C@H](C(=O)N[C@H](C(=O)N1CCC[C@H]1C(=O)N[C@H](C(=O)N[C@@H](CO)C(=O)N[C@H](C(=O)N1CCC[C@H]1C(=O)N[C@@H](Cc1ccccc1)C(=O)O)[C@@H](C)CC)[C@@H](C)CC)[C@@H](C)CC)C(C)C)C(C)C)C(C)C  inhibition (Escherichia coli; bacterial ATP level; E24, Mueller-Hinton broth; 1 µg/mL, 1/4 × MIC): 50%
C/C=C/c1ccc(OCc2ccccc2)c(OC)c1  antifeedant index (Spodoptera frugiperda; larvae; 100 µg/mL; baseline: untreated control): 10.4%
CC[C@H](C)[C@H](NC(=O)[C@H](CCCCN)NC(=O)[C@H](CCCCN)NC(=O)[C@H](CC(C)C)NC(=O)[C@H](CCCCN)NC(=O)[C@H](CCC(=O)O)NC(=O)[C@H](CCCCN)NC(=O)[C@@H](NC(=O)[C@H](CCCCN)NC(=O)[C@H](CC(N)=O)NC(=O)[C@H](CCCNC(=N)N)NC(=O)[C@H](Cc1ccccc1)NC(=O)[C@H](CCCCN)NC(=O)[C@H](CCCNC(=N)N)NC(=O)[C@H](CC(C)C)NC(=O)[C@H](CCCNC(=N)N)NC(=O)[C@H](CCCCN)NC(=O)[C@H](CCCNC(=N)N)NC(=O)[C@H](CC(C)C)NC(=O)CN)[C@@H](C)CC)C(=O)NCC(=O)N[C@@H](CCC(N)=O)C(=O)N[C@@H](CCCCN)C(=O)N[C@H](C(=O)N[C@@H](CCC(N)=O)C(=O)NCC(=O)N[C@@H](Cc1ccccc1)C(=O)N[C@H](C(=O)N1CCC[C@H]1C(=O)N[C@@H](CCCCN)C(=O)N[C@@H](CC(C)C)C(=O)N[C@@H](C)C(=O)N1CCC[C@H]1C(=O)N[C@@H](CCCNC(=N)N)C(=O)N[C@H](C(=O)N[C@@H](CC(=O)O)C(=O)N[C@@H](Cc1ccc(O)cc1)C(=O)O)[C@@H](C)O)C(C)C)[C@@H](C)CC  lethal concentration (Streptococcus sanguinis; inhibition zone; ATCC 1.2497; LB agar, overnight): 1.16 µM
